Measurements collected from several papers.
Each numbered part is a random draw from the data of one study; scales do not carry over between parts. Positions count from the first letter of the parent shown.

Set 1 — method: protein-binding microarray; molecule type: double-stranded DNA, one strand shown; sample: in vitro; concentration: 0.8 µM; setting: whole 60-bp probe, no competitor; reading: higher = stronger binding
Target: Centromere-binding protein 1, full length, N-terminal tag (CBF1, Saccharomyces cerevisiae, UniProt P17106, residues 1-351)
Sequence of UniProt P17106 (whole entry, looked up): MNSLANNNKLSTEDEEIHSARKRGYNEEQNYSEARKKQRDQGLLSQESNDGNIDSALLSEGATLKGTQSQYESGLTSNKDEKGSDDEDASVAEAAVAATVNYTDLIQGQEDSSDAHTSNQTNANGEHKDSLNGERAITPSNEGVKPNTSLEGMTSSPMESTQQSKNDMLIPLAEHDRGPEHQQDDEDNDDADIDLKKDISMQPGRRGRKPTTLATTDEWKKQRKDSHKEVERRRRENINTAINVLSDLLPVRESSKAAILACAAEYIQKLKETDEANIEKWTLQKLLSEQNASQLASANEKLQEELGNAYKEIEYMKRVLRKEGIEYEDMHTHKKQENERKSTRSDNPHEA
| Strand | fluorescence intensity [a.u.] |
| --- | --- |
| GAATGTAATTGTCATCAGCTGTATACTGTTCGATAGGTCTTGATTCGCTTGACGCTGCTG | 558 |
| CTAAGAACTTGAGCTAACATCACAGAACAAAGGTTCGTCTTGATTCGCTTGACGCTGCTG | 557 |
| CTAAAGACCCAGAGGCACATGCAAGATAGTTGTTTCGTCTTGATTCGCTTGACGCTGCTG | 613 |
| CTAGGCCCGCCGTCCAACGTGCGGGTACCGTACTTCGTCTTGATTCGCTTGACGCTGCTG | 464 |
| GAACGAAATTTTCATCACGCTGTAGGACGCAAATAGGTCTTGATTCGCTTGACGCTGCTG | 930 |
| CTATGCTGCTAGAATAGTATCACGTACAGTAGTTTCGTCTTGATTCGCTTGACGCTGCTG | 688 |
| GAAGTGCAGTAACTCCTCGTGCTTACGCTAACTTAGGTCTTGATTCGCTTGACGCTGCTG | 640 |
| GAAACACATGAATGTGACGTTTCCTAAAAGAAGTAGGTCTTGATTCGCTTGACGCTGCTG | 584 |
| CTATATTATCGCGCAGGTGAGAGAGTCCTGGAATTCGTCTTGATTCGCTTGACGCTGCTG | 583 |
| CTAAATTATTATTATCACGTTTCACGGATTATTTTCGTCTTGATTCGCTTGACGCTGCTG | 2110 |
| GAACGCCCCTTGACGGTGGTGGTATATATTAGGTAGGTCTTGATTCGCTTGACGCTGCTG | 497 |
| CTATTCCAGACATGTTGCGTGTTGTTATTCACTTTCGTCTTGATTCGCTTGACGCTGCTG | 540 |

Set 2 — method: protein binding microarray; molecule type: double-stranded DNA, one strand shown; sample: in vitro; concentration: not given; reference: not given; reading: higher = stronger binding
Target: Histone acetyltransferase KAT6A, winged helix 1, GST fusion (KAT6A, Homo sapiens, UniProt Q92794, residues 1-85)
Setting: 8-mer, flanks averaged, mean of 2 arrays, mostly near background
Construct (chain): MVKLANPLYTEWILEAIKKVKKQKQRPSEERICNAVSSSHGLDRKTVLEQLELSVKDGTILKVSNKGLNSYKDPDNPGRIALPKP
| Strand | E-score |
| --- | --- |
| GGCAATAA | -0.085 |
| CGCCATAC | 0.052 |
| GAGAAATA | -0.096 |
| AACAGGGC | -0.136 |
| ATCACGCA | 0.0669 |
| CCGAAACG | 0.0225 |
| ATTCGAAA | -0.206 |
| GAGCCATA | -0.118 |
| CCTGGGTC | -0.168 |
| CTTAAACC | -0.0976 |
| CCTCCAGG | -0.103 |

Set 3 — target: CCNB1, cyclin fold, Cln2 fusion (human); method: yeast growth competition, sequencing; sample: yeast; setting: weak parent motif; reference: not given; reading: higher = stronger binding
Starting sequence: SCAPER docking peptide (human); SNARRSLNFGGST
| Variant | normalised enrichment score |
| --- | --- |
| SNAQRSLNFGGST [R4Q] | -0.4 |
| SNAWRSLNFGGST [R4W] | 0.0444 |
| SNAPRSLNFGGST [R4P] | -0.544 |
| SNARRSLEFGGST [N8E] | 0.211 |
| SNARRSLNFGEST [G11E] | 0.583 |
| SWARRSLNFGGST [N2W] | 0.379 |
| ENARRSLNFGGST [S1E] | -0.431 |
| SRARRSLNFGGST [N2R] | 0.259 |
| SNARRSLNKGGST [F9K] | 0.0171 |
| SNARRSLNFGGQT [S12Q] | -0.198 |
| SCARRSLNFGGST [N2C] | 0.689 |

Mixed results
| Substance | target | assay | system | conditions | scale | measurement | result |
| --- | --- | --- | --- | --- | --- | --- | --- |
| PhoQ, residues 284 288 289 292 302 303 QWGLFV | PhoP, residues 12 14 15 18 19 NHTVL (Escherichia coli, UniProt P23836) | Sort-seq, refers to: YFP reporter | E. coli | PhoQ-PhoP variant library, together with: 10 µM Mg2+ | reference: high Mg2+ state, higher = stronger signaling | fold induction | 4.02 |
